Results from different studies.
Compare with care: the assays were run in different laboratories. Numbers after ± are the reported error.
PKN2: Serine/threonine-protein kinase N2 (PKN2, Homo sapiens, UniProt Q16513)
Sequence of UniProt Q16513 (whole entry, looked up): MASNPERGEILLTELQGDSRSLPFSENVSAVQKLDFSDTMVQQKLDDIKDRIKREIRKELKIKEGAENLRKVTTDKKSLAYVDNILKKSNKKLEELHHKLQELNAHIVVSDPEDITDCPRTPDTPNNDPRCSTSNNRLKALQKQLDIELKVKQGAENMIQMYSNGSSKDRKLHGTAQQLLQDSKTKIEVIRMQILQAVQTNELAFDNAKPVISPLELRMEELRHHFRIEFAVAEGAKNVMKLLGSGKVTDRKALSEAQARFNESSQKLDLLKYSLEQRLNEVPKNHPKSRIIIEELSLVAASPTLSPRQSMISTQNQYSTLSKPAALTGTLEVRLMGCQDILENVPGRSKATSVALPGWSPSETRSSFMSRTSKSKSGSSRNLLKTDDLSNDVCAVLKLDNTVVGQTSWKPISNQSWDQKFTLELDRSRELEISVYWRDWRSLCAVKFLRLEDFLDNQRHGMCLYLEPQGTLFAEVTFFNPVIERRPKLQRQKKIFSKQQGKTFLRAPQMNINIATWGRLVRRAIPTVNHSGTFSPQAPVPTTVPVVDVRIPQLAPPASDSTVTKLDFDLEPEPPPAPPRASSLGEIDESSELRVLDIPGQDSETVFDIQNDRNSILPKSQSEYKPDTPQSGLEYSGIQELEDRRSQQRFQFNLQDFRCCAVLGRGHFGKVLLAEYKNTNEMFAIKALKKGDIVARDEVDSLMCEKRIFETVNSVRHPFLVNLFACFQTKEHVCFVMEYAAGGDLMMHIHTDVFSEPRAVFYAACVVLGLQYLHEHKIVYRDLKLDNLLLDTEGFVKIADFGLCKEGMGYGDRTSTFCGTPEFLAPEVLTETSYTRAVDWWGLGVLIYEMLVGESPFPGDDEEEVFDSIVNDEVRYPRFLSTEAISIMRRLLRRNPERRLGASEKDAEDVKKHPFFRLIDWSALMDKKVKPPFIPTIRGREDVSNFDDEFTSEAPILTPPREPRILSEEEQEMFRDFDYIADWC
Sequence of UniProt P49761 (whole entry, looked up): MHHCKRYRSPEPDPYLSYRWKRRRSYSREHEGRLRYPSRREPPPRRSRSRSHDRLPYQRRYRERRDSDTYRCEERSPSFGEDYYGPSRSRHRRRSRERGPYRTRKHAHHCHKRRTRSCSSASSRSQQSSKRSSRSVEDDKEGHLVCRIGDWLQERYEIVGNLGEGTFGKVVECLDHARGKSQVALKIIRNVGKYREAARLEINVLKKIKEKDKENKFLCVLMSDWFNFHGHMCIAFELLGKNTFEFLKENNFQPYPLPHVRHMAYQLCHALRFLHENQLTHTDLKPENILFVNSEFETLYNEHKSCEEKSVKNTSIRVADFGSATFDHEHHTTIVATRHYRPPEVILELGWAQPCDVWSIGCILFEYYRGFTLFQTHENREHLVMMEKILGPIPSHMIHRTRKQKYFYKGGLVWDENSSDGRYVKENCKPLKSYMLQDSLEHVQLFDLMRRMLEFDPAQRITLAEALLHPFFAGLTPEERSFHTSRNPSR
Sequence of UniProt Q9UIK4 (whole entry, looked up): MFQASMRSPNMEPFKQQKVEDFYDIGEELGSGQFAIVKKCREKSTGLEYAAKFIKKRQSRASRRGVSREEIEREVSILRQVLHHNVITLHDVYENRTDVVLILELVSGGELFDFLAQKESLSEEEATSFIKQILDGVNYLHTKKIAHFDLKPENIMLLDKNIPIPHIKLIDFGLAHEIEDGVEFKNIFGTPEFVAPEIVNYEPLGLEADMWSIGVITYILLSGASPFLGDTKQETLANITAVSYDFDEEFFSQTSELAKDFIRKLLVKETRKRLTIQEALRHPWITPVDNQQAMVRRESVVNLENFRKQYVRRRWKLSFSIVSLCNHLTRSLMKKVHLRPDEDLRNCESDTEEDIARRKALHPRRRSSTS
Sequence of UniProt P32245 (whole entry, looked up): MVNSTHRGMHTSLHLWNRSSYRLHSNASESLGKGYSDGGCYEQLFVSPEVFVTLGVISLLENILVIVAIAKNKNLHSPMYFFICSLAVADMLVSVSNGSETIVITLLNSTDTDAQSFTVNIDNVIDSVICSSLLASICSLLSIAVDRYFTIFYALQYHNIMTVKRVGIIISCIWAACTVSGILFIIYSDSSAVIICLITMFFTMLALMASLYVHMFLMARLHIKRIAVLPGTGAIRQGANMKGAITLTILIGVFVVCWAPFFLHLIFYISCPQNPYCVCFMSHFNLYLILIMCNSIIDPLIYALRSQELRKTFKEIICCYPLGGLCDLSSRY
Sequence of UniProt Q9UM07 (whole entry, looked up): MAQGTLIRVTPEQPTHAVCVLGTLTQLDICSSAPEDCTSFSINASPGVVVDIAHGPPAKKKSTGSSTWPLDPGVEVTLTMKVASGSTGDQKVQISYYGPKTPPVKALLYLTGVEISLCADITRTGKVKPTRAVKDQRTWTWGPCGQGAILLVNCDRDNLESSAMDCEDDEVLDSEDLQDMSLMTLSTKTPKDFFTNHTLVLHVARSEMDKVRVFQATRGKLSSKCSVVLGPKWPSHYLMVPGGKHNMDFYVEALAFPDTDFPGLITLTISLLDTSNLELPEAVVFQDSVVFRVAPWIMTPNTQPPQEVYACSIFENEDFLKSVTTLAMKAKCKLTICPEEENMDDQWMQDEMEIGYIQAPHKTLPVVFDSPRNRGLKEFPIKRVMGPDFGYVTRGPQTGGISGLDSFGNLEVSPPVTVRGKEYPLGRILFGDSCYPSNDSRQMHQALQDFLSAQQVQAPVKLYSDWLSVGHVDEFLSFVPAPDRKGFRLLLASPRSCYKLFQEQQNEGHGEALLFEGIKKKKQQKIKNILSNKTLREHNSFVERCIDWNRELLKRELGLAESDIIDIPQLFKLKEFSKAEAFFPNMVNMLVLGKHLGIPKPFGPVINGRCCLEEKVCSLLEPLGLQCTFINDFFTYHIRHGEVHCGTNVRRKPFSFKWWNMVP
Sequence of UniProt Q9BVS4 (whole entry, looked up): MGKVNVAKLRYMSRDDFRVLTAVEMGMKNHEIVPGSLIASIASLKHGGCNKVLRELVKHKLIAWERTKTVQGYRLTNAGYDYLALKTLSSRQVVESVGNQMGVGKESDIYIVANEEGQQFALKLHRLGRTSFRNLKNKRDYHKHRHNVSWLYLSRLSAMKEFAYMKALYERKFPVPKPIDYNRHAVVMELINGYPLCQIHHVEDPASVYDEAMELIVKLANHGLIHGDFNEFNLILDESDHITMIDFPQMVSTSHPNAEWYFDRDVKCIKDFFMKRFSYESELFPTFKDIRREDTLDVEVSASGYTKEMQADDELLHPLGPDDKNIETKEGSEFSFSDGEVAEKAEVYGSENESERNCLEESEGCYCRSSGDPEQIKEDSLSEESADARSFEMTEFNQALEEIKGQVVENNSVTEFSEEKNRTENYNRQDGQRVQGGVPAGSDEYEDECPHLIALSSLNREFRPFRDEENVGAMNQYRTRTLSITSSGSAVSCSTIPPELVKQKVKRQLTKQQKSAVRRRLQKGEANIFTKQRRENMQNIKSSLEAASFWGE
Sequence of UniProt Q9NR20 (whole entry, looked up): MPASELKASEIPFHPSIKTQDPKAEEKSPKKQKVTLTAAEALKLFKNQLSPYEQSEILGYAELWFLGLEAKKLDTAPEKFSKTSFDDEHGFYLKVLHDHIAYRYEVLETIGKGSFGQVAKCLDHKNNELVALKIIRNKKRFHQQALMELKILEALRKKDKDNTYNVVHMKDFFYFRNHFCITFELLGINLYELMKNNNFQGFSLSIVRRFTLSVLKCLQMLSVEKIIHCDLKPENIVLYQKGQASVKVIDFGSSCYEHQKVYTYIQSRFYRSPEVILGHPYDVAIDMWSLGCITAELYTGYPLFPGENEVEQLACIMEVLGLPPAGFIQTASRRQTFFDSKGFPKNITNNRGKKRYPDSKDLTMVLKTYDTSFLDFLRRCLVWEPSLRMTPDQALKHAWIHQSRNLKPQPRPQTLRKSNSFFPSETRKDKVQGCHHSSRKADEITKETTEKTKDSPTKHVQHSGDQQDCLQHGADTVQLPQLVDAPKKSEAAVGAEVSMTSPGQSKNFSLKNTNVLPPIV
Sequence of UniProt P49840 (whole entry, looked up): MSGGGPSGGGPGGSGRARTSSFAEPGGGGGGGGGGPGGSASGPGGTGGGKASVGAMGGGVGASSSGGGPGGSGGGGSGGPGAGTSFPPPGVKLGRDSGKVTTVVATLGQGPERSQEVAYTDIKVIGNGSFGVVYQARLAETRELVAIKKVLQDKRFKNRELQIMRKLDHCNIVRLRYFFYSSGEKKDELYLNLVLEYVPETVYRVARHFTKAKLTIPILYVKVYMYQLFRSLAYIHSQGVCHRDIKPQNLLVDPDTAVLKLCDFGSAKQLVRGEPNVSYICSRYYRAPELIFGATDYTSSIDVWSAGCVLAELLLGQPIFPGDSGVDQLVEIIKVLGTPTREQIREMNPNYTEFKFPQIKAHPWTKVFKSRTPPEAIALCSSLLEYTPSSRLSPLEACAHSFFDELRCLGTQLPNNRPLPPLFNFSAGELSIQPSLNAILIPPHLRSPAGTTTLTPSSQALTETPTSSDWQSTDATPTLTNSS

SMILES	tested on	assay	test system	setting	scale	quantity	result
COc1ccccc1-c1n[nH]c2nc(NC3CCN(C(=O)Cc4ccc(F)cc4F)CC3)ncc12		bead binding, competition bead pull-down, measured: LINJ.26.1590	Leishmania donovani extract	10 µM	reference: vehicle	relative abundance	0.93
O=C1NC(=O)c2c1c1cc(F)c[n+]3c1c1c2c2cc(O)ccc2[n]1[Ru-4]312([N]=C=S)[S+]3CC[S+]1CC[S+]2CC3 (stereo not shown)	DAPK2 (Homo sapiens, UniProt Q9UIK4)	enzyme activity		100 nM, human enzyme, together with: 10 µM ATP	reference: untreated	remaining activity	2%
C[C@H](NCc1ccc(-c2ccc(C(F)(F)F)cc2)cc1)C(N)=O	RIOK2 (Homo sapiens, UniProt Q9BVS4)	cell-free assay, competition with immobilised ligand		1 µM		inhibition	3%
CS(C)(=O)=Nc1ccc(-c2ccc(-c3nc4cc(O[C@@H]5CO[C@H]6[C@@H]5OC[C@H]6O)[nH]c4cc3F)cc2)cc1	PKN2	enzyme activity, inhibitor		10 µM		inhibition	15%
O=C(O)c1ccccc1/C=N/Nc1nc(-c2ccccc2Cl)cs1	GSK3A (Homo sapiens, UniProt P49840)	enzyme activity, inhibitor		1 µM		inhibition	-1.54%
CC(C)[C@H]1NC(=O)C[C@H]2/C=C/CCSSC[C@@H](NC1=O)C(=O)N[C@H](Cc1cccc3ccccc13)C(=O)NCC(=O)O2	CLK3 (Homo sapiens, UniProt P49761)	enzyme activity, inhibitor		10 µM		inhibition	1.8%
COc1ccccc1-c1n[nH]c2nc(N[C@H]3CC[C@H](NS(=O)(=O)CC(C)C)CC3)ncc12		bead binding, competition bead pull-down, measured: LINJ.35.3130	Leishmania donovani extract	10 µM	reference: vehicle	relative abundance	1.06
CN(C)[C@H]1C[C@@]23CC[C@@]4(O2)C(=CC[C@]2(C)[C@@H](c5ccc6ccncc6c5)CC[C@H]24)C=C3[C@@H](O)[C@@H]1O	PKN2	ATP probe labelling, inhibitor, KiNativ profiling		0.1 µM		inhibition	-4%
COc1ccc(F)cc1S(=O)(=O)Nc1cnc2c(c1)C(=O)NCCO2	MC4R (Homo sapiens, UniProt P32245)	ligand displacement, radioligand		10 µM		inhibition	1%
N[C@H](C(=O)N1CCCC1)C1CCN(c2nccc3c(-c4ncc(Cl)cc4Cl)cccc23)CC1	PADI4 (Homo sapiens, UniProt Q9UM07)	enzyme activity, inhibitor		9.6 µM, together with: Ca2+ 0.25 mM		inhibition	104%
O=C1NC2(CC2)COc2ncc(F)cc2[C@H]2COCCN2c2ccn3ncc1c3n2			Sprague-Dawley rat, female, serum	oral, 10 mg/kg/day, end of recovery, 4-week subacute toxicity		serum triglycerides	0.4 ± 0.11 mmol/L
CN(/N=C/c1ccccc1C(=O)O)c1nc(-c2ccccc2Cl)cs1	DYRK4 (Homo sapiens, UniProt Q9NR20)	enzyme activity, inhibitor		1 µM		inhibition	-11.3%
O=C(CN1CN(c2ccccc2)C2(CCN(C(=O)c3cnc4[nH]ncc4c3)CC2)C1=O)NCC(F)(F)F	EGFR (Homo sapiens, UniProt P00533, G719S)	inhibitor		concentration not given		inhibition	< 50%

For quick reference, copied from above:
SMILES	tested on	assay	test system	setting	scale	quantity	result
O=C(O)c1ccccc1/C=N/Nc1nc(-c2ccccc2Cl)cs1	GSK3A (Homo sapiens, UniProt P49840)	enzyme activity, inhibitor		1 µM		inhibition	-1.54%
CC(C)[C@H]1NC(=O)C[C@H]2/C=C/CCSSC[C@@H](NC1=O)C(=O)N[C@H](Cc1cccc3ccccc13)C(=O)NCC(=O)O2	CLK3 (Homo sapiens, UniProt P49761)	enzyme activity, inhibitor		10 µM		inhibition	1.8%
